Measured values of several laboratories.
Each numbered part is a random draw from the data of one study; scales do not carry over between parts.

Series 1 — method: protein-binding microarray; form: double-stranded DNA, one strand shown; matrix: in vitro; concentration: 250 nM; setting: 60-bp whole probe; with: salmon DNA 0.4 mg/ml; reference: random background probes; reading: higher = stronger binding
Target: Interferon regulatory factor 5, full length, phosphomimetic (IRF5, Homo sapiens, UniProt Q13568-2, residues 1-514, K96S/S451D/S453D/S456D/S462D)
Constant ends, left off below: GCCTAGCAC … GTGCTAGGTCTTGATTCGCTTGACGCTGCTG
Oligonucleotide	log fluorescence [z-score]
GACGATATCAGACTGCAGAC	0.527
TCATTTTGAGTTTTCCTACT	0.833
GACGATTCCAGTGTCGAGAC	-0.0372
CACAGAACATATTAGTATAT	0.49
TCAACTTTCTTTTTTTCACT	3.07

Series 2 — method: protein binding microarray; form: double-stranded DNA, one strand shown; matrix: in vitro; concentration: not given; reference: not given; reading: higher = stronger binding
Target: Histone acetyltransferase KAT6A, winged helix 2, GST fusion (KAT6A, Homo sapiens, UniProt Q92794, residues 85-181)
Setting: 8-mer, flanks averaged, mean of 2 arrays, mostly near background
Construct (chain): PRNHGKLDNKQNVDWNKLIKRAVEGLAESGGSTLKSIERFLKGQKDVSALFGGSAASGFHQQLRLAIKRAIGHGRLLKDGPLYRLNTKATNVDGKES
Oligonucleotide	E-score
CGCGAACA	0.187
AATCTACG	-0.118
AATCCGGG	0.0684
CATATCGG	-0.188

Series 3 — method: universal PBM; form: double-stranded DNA, one strand shown; matrix: in vitro; concentration: 600 nM; reading: higher = stronger binding
Target: Sal-like protein 4, full length isoform A (SALL4, Homo sapiens, UniProt Q9UJQ4, residues 1-1053)
UniProt Q9UJQ4, sequence (whole entry, looked up): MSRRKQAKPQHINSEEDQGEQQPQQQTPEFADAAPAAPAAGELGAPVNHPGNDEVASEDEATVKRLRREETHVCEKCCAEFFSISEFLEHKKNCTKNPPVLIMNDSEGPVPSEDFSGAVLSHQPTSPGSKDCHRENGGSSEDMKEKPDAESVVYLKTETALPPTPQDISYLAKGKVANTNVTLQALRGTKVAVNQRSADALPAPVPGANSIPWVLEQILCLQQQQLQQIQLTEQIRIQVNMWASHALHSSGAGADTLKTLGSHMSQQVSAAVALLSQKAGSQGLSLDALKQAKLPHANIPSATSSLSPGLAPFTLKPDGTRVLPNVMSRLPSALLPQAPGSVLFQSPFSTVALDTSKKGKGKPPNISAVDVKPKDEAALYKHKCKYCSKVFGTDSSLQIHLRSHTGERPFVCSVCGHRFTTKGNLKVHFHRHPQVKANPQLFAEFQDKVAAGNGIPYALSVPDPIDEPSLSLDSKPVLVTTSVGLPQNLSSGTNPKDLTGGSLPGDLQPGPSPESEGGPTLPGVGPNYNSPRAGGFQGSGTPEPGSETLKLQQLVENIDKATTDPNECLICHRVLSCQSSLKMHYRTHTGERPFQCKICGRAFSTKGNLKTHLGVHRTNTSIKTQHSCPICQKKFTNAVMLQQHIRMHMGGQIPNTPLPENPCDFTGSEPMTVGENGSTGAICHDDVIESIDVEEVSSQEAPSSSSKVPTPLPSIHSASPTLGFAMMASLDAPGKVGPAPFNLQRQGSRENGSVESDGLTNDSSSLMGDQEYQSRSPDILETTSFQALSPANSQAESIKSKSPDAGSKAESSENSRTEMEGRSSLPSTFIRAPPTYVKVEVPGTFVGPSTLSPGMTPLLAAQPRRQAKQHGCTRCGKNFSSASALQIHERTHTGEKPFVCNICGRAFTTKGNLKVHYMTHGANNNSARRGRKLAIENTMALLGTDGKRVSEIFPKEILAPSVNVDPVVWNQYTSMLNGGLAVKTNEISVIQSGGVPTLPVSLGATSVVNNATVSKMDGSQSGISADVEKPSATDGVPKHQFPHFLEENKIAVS
Setting: 8-mer, flanks averaged, mean of replicates
Oligonucleotide	E-score
GCCCCGAA	-0.272
CATGGAGG	-0.0535
CGTTAAAA	0.145
ATTGGGGA	-0.152

Single results of other studies
Molecule	target	test	system	conditions	scale	endpoint	value
PhoQ, residues 284 288 289 292 302 303 SNGLAW	PhoP, residues 12 14 15 18 19 TTLRV (Escherichia coli, UniProt P23836)	Sort-seq, measured: YFP reporter	E. coli	PhoQ-PhoP variant library, with: 10 µM Mg2+	reference: high Mg2+ state, higher = stronger signaling	fold induction	8.37
